# Results pooled from the literature.
# Parts stem from different laboratories: compare values within a part only.

# Sample 1
# Target: Histone acetyltransferase KAT6A, winged helix 2, GST fusion (KAT6A, Homo sapiens, UniProt Q92794, residues 85-181)
# Method: protein binding microarray
# Form: double-stranded DNA, one strand shown
# Medium: in vitro
# Concentration: not given
# Notes: 8-mer, flanks averaged, mean of 2 arrays, mostly near background
# Reference: not given
# Reading: higher = stronger binding
# Residues (chain): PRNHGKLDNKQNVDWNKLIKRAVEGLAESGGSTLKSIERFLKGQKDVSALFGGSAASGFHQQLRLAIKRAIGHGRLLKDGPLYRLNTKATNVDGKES
Oligonucleotide,E-score
ATTAACTA,-0.111
GTGTTCTA,-0.00321
GTGTGATA,0.0842
ATCTAAAC,-0.0347
CGAGGGCG,0.068
TGTGATAA,0.126
CAGGTCCG,0.101
CAGATCGA,0.0597
ACTGCACG,-0.0836
CTAAAGCC,-0.0746
AGTAAAAC,-0.0117

# Sample 2
# Target: Protein C-ets-1 (ETS1, Homo sapiens, UniProt P14921, residues 1-441, full length assumed)
# Method: protein-binding microarray
# Form: double-stranded DNA, one strand shown
# Medium: in vitro
# Concentration: not given
# Notes: k-mer, scored over probes, only values ≥0.25
# Reading: higher = stronger binding
# Construct (chain): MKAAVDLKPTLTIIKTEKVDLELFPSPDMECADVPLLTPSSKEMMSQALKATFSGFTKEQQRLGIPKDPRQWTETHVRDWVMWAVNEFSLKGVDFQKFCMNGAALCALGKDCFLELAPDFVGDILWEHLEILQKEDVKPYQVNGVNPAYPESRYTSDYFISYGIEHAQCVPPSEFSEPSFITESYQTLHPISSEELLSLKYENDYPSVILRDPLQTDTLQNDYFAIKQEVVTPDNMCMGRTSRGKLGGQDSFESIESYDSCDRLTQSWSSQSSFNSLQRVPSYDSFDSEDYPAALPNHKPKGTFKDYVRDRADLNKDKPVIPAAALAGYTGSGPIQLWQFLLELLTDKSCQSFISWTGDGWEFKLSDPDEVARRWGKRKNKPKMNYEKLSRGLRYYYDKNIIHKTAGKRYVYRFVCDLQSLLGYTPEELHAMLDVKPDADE
Oligonucleotide,E-score
AGGATACC,0.347
TCCGGGAA,0.409
AACGGATG,0.461
AATCCGGG,0.283
GGATGACA,0.25
GATATTCC,0.252
ACGACGGA,0.307
GATGTTCC,0.342
AAGCGGAT,0.431
CCGGACGG,0.431

# Sample 3
# Target: Prothrombin, mature alpha-thrombin (F2, Homo sapiens, UniProt P00734)
# Method: aptamer microarray, sandwich
# Form: DNA with 2'F-ANA
# Medium: in vitro
# Concentration: 200 nM
# Notes: whole 15-mer aptamer, many near background
# Added: Cy3 exosite-II aptamer, 400 nM
# Reading: higher = stronger binding
# Oligonucleotide: GGTTGGTGTGGTTGG
Modification,mean fluorescence intensity [a.u.]
2'F-ANA at 1 2 3 6 7 8 12 13 14 15,93.4
2'F-ANA at 3 6 8 14,587
2'F-ANA at 3 4 5 6 7 11 12 13 14,107
2'F-ANA at 4 5 6 7 9 11 15,55.8
2'F-ANA at 2 4 5 6 10 15,47.3
2'F-ANA at 2 4 7 8 9 10 12 13 14,66.8
2'F-ANA at 1 4 5 7 10 11 13 14 15,48.2
2'F-ANA at 1 6 9 15,181
2'F-ANA at 2 6 7 9 10 11 12 13,118
2'F-ANA at 2 3 7 8 9 12 14 15,538
2'F-ANA at 1 2 3 6 8 9 11 12 13 15,293
2'F-ANA at 1 3 6 9 10 12 14 15,89.4

# Further values, each from its own experiment
Molecule,target,test,system,setting,scale,quantity,value
"PhoQ, residues 284 288 289 292 302 303 TSTLRA","PhoP, residues 12 14 15 18 19 NMSSL (Escherichia coli, UniProt P23836)","Sort-seq, measured: YFP reporter",E. coli,"PhoQ-PhoP variant library, added: 10 µM Mg2+","reference: high Mg2+ state, higher = stronger signaling",fold induction,1.69

# A few entries again (sample 1):
Oligonucleotide,E-score
CGAGGGCG,0.068
TGTGATAA,0.126
CAGGTCCG,0.101
